Published values gathered from unrelated publications.
“And” joins repeats or separate records; there may be more than shown. ± gives the spread as reported.

Compound	test	system	conditions	scale	Cmax
Cl.[2H]C([2H])([2H])CC(=O)c1cnc(NC(=O)C2CC2)cc1Nc1cccc(-c2ncn(C([2H])([2H])[2H])n2)c1OC	geometric mean	human	oral, 20 mg twice daily, day 7, fed, liquid, multiple dose		203 ng/mL
Cc1cn(C(=O)c2c(-c3c(Cl)cc(Cl)cc3Cl)noc2C(C)(C)F)c2cccc(/C=C/C(=O)O)c12		human patients	1400 mg bid, cycle 1 day 1		34600 ng/mL
Cc1cc(/C=C/C#N)cc(C)c1Nc1ccnc(Nc2ccc(C#N)cc2)n1		human, haemodialysis, plasma	oral, dose not given, steady state		110 ng/mL
Nc1ccn([C@@H]2O[C@H](CO)[C@@H](O)C2(F)F)c(=O)n1	HPLC-UV	human, plasma	intravenous, 1000 mg/m^2, median, before paricalcitol		6880 ng/mL
N[C@@H]1c2cccnc2[C@H](OC(=O)N2CCC(n3c(=O)[nH]c4ncccc43)CC2)CC[C@H]1c1cccc(F)c1F		human, plasma	oral, 75 mg single dose, alone, geometric mean, itraconazole DDI study		806 ng/mL
Cc1cc(Nc2cc3ncccc3c(N[C@@H]3C[C@H]4CC[C@@H](C3)N4CCC#N)n2)n[nH]1		human, plasma	80 mg, day 14, geometric mean		2.28 ng/mL
CN1CCC(COc2cnc(-c3cccc(Cn4nc(-c5cccc(C#N)c5)ccc4=O)c3)nc2)CC1		human	500 mg, day 1, alone, geometric mean		414 ng/mL
Cc1nc(-c2ccc(OCC(C)C)c(C#N)c2)sc1C(=O)O		human, plasma	oral, 20 mg once daily, together with: verinurad 10 mg		540 ng/mL
CCCc1nn(C)c2c(=O)[nH]c(-c3cc(S(=O)(=O)N4CCN(C)CC4)ccc3OCC)nc12		humans, plasma	100 mg, phase I DDI study, together with: placebo		340 ng/mL
CC(C)(Sc1ccncc1-c1ccc(C#N)c2ccccc12)C(=O)O		human, plasma	oral, 5 mg once daily, together with: febuxostat 20 mg		13.2 ng/mL
COc1ccc2[nH]c([S@+]([O-])Cc3ncc(C)c(OC)c3C)nc2c1		human male, dried plasma spots	oral, 5 mg racemic omeprazole, together with: fluvoxamine and voriconazole		415 nM
COC(=O)N[C@@H](C)CNc1nccc(-c2cn(C(C)C)nc2-c2cc(Cl)cc(NS(C)(=O)=O)c2F)n1		human patients, plasma	oral, 450 mg twice daily, day 1, single dose, geometric mean, together with: binimetinib 45 mg once daily		6150 ng/mL
C[C@H](CCC(=O)NCC(=O)O)[C@H]1CC[C@H]2[C@@H]3CC[C@@H]4C[C@H](O)CC[C@]4(C)[C@H]3CC[C@]12C		human, plasma	concentration not given, endogenous control diurnal		85.9 ± 24 nM
O=C(NCCN1CCCC1)c1cc(-c2ccc(CN3CCOCC3)cc2)nc2ccc(F)cc12		human, whole blood	oral, 1250 mg		1140 ng/mL and 1560 ng/mL
COc1ncnn2ccc(-c3cnc4nc(C)n(Cc5nnc([C@@H](C)F)o5)c4c3)c12	LC-MS/MS	human, plasma	oral, 70 mg capsule		714 ng/mL
N[C@]1(C(=O)O)[C@H]2[C@@H](C[C@@H]1F)[C@@H]2C(=O)O		human, both sexes, plasma	oral, 20 mg, fasted, single dose		88.5 ng/mL
CCN(CCO)CCCC(C)Nc1ccnc2cc(Cl)ccc12 (stereo not drawn)		human patient, whole blood	oral, 400 mg, steady state		1950 ng/mL and 1050 ng/mL and 1340 ng/mL and 1270 ng/mL and 921 ng/mL and 1180 ng/mL and 1450 ng/mL
COCCc1ccc(OCC(O)CNC(C)C)cc1 (stereo not drawn)		human	dose not given, alone		35.7 ng/mL
Fc1ccc([C@@H]2CCNC[C@H]2COc2ccc3c(c2)OCO3)cc1		human, CYP2D6 normal metabolizers	oral, 20 mg, steady state, geometric mean		23 ng/mL
CC1(COc2ccc3c(c2)ncn3-c2ccc3cccc(N4CCC(N)CC4)c3n2)COC1		human patients, recurrent/progressive HGG or DIPG, serum	oral, 220 mg/m^2, day 1, median		1620 nM

Compound	test	system	conditions	scale	Cmax
Cc1nc2ccc(F)cc2n1-c1nc(N)c(F)c(Nc2ccc(C(F)(F)F)cc2)n1		human patients, plasma	oral, 200 mg twice weekly, cycles 1 and 2 pooled		1260 ng/mL
COCCOc1cnc2ccn([C@H](C)c3nnc4c(F)cc(-c5cnn(C)c5)cn34)c(=O)c2c1		human patients, dose escalation, plasma	oral, 300 mg once daily, day 1		4010 ng/mL
Cn1c(=O)oc2ccc(-c3ccc(C[C@@H](C#N)NC(=O)[C@@H]4CNCCCO4)cc3)cc21		human, mild renal impairment, plasma	oral, 25 mg single dose, geometric least squares mean		169 ng/mL
N#Cc1cc(NC(=O)[C@H]2c3ccccc3C(=O)N(CC(F)(F)F)[C@@H]2c2cccnc2)ccc1F		human, plasma	oral, 600 mg, median		1470 ng/mL
Cn1cncc1-c1c(F)cncc1NC(=O)c1c(N)nn2cc(F)cnc12		human patients, plasma	oral, 90 mg, cycle 1 day 1		~583 ng/mL
O=C(O)c1cc(/N=N/c2ccc(S(=O)(=O)Nc3ccccn3)cc2)ccc1O	LC-MS	human, plasma	oral, 1000 mg, day 1	arithmetic mean	8350 ng/mL
COc1cc2ncnc(Nc3ccc(F)c(Cl)c3)c2cc1NC(=O)/C=C/CN1CCCCC1		human, moderate hepatic impairment (Child-Pugh), plasma	single dose, geometric mean, total drug		10.1 ng/mL
COc1ccc2[nH]c([S@+]([O-])Cc3ncc(CO)c(OC)c3C)nc2c1		human, dried plasma spots	5 mg racemic omeprazole		80.9 nM
CCN1CCN(Cc2ccc(Nc3ncc(F)c(-c4cc(F)c5nc(C)n(C(C)C)c5c4)n3)nc2)CC1		healthy human, fasted, plasma	oral, 200 mg, 2 x 100 mg capsules		116 ng/mL
NC[C@@]1(CC(=O)O)[C@@H]2CC[C@H]3C[C@@H]2[C@@H]1C3		human, normal renal function, plasma	oral, 20 mg single dose, geometric mean		360 ng/mL
NS(=O)(=O)OC[C@@H]1C[C@@H](n2ccc3c(N[C@H]4CCc5ccccc54)ncnc32)C[C@@H]1O	LC-MS/MS, non-compartmental	human, plasma	intravenous, all dose levels, cycle 1 day 1, median		273 ng/mL
N[C@](CO)(CCc1ccc(Sc2cccc(OCc3ccccc3)c2)cc1Cl)COP(=O)(O)O		human fasted, whole blood	3 mg MOC, MOC given alone		0.996 ng/mL
CC(=O)N(C)[C@H]1CCN(C(=O)c2cnc3c(c2)C[C@](C)(c2ccc(F)cc2)N3)C1		healthy male human, plasma	oral, 30 mg once daily, geometric mean		709 nM
Cc1ncnc2c1ccn2[C@@H]1C[C@H](Oc2cc(C(F)F)c(F)c3c2CNCC3)[C@@H](O)[C@H]1O		human	oral, 0.5 mg twice daily		5.02 ng/mL
CC(=O)c1cc(C(=O)N[C@@H](C)Cn2ccc(-c3ccc(C#N)c(Cl)c3)n2)[nH]n1		human, fasted, plasma	oral, 300 mg 14C-darolutamide solution, geometric mean		11700 ng/mL
Cn1c(=O)oc2ccc(-c3ccc(C[C@@H](C#N)NC(=O)[C@@H]4CNCCCO4)cc3)cc21	HPLC-MS/MS	healthy male humans, plasma	oral, 25 mg		598 nM
Cc1cc(OCCOCCC(F)(F)P(=O)(O)O)ccc1CCc1cnc2c(N)nc3cc(CCC(=O)O)ccc3c2c1		human, serum	intratumoral, 200 µg every 2 weeks, cycle 1 day 1		2 ng/mL
Cc1ccc(C(=O)N(CCCN)C(c2nc3snc(C)c3c(=O)n2Cc2ccccc2)C(C)C)cc1 (stereo not drawn)		human	intravenous, 16 mg/day, course day 3 following induction, geometric mean		87.1 ng/mL
O=C(c1nc2n(n1)[C@H](c1ccccc1)C[C@@H]2F)C1CC1	geometric LS mean	human, fasted, plasma	oral, 75 mg single dose		783 ng/mL
COC(=O)N[C@@H](C)CNc1nccc(-c2cn(C(C)C)nc2-c2cc(Cl)cc(NS(C)(=O)=O)c2F)n1		human, plasma	oral, 50 mg, geometric mean, together with: diltiazem 240 mg once daily		698 ng/mL

Compound	test	system	conditions	scale	Cmax
N#CCNC(=O)c1ccc(-c2ccnc(Nc3ccc(N4CCOCC4)cc3)n2)cc1		healthy human volunteers, plasma	oral, 200 mg single dose, day 1, fasted, given alone		528 ng/mL
CO[C@@H]1[C@H](OC(=O)N2CC(CCN3CCOCC3)C2)CC[C@]2(CO2)[C@H]1[C@@]1(C)O[C@@H]1CC=C(C)C		humans, plasma	subcutaneous, 1.8 mg twice weekly, fifth dose		10.4 ± 6 ng/mL
CO[C@@H]1[C@H](N(C)C(=O)c2ccccc2)C[C@H]2O[C@]1(C)n1c3ccccc3c3c4c(c5c6ccccc6n2c5c31)C(=O)NC4		human patients, consolidation therapy, plasma	oral, 50 mg twice daily, day 21, prior micafungin, mean		1800 ng/mL
Cc1ncc(CO)c(C(=O)O)c1O		human males, White, plasma	concentration not given, endogenous baseline level		4.2 ± 1.5 ng/mL
N#Cc1ccc(C(c2ccc(C#N)cc2)n2cncn2)cc1		human	125 mg		31.6 ng/mL
CCN(CC)CCNC(=O)c1c(C)[nH]c(/C=C2\C(=O)Nc3ccc(F)cc32)c1C		human, moderate hepatic impairment (Child-Pugh), plasma	single dose, geometric mean, total drug		22.7 ng/mL
N#Cc1ccc2c(c1)[C@H]1CCCN(C(=O)c3ccc4[nH]cnc4c3)[C@H]1C2		human, plasma	oral, 240 mg once daily, after first dose		13800 nM
COc1nnc2ccc(N3CCC(c4ccc(OCCN5CCN(C)C(=O)[C@H]5C)cc4)CC3)nn12		human, plasma	oral, 40 mg once daily, single dose, monotherapy		232 nM
Cc1cc(-c2nccc3c2ccn3CC(=O)Nc2ccc(-c3cnccn3)cn2)ccn1		human, plasma	oral, 15 mg once daily, day 1, geometric mean		184 nM
CC1=C(c2cccc(O)c2)[C@H](c2ccc(OCCN3CC(CF)C3)cc2)Oc2ccc(O)cc21		human, plasma	oral, 600 mg single dose, geometric mean		58 ng/mL
NC1(C(=O)N[C@@H](CCO)c2ccc(Cl)cc2)CCN(c2nc[nH]c3nccc2-3)CC1		human, plasma	concentration not given, together with: enzalutamide		408 ng/mL and 225 ng/mL and 479 ng/mL
Cn1cncc1[C@@](N)(c1ccc(Cl)cc1)c1ccc2c(c1)c(-c1cccc(Cl)c1)cc(=O)n2C		healthy human subjects, plasma	oral, 50 mg, fasted		110 ng/mL
Cn1nc2c(=O)n(C3CC3)cnc2c1[C@](O)(c1cnc(C(F)(F)F)c(Cl)c1)C(F)(F)F		humanized SCID mice, blood	30 mg/kg once daily, 6 days, infected		14500 nM
N#Cc1cccc(-c2ccc3ncc(-c4cc(F)cc(F)c4)c(N4CCC(N)CC4)c3c2)c1O		male human, plasma	oral, 20 mg single, geometric mean		156 ng/mL
CC[C@H](C)[C@@H]([C@@H](CC(=O)N1CCC[C@H]1[C@H](OC)[C@@H](C)C(=O)N[C@@H](Cc1ccccc1)C(=O)NCCCO)OC)N(C)C(=O)[C@@H](NC(=O)[C@H](C(C)C)N(C)C)C(C)C		human patients, plasma	intravenous, 30 mg/m², cycle 1 geometric mean		6.73 ng/mL
C[C@H](Oc1ccc(Br)cc1-c1ccon1)C(=O)O		healthy male humans, plasma	oral, 400 mg twice daily, day 10		31200 ng/mL
C[C@H](CCC(=O)O)[C@H]1CC[C@H]2[C@@H]3CC[C@@H]4C[C@H](OS(=O)(=O)O)CC[C@]4(C)[C@H]3CC[C@]12C		human, plasma	concentration not given, endogenous control diurnal		351 ± 42 nM
Cn1cnc2c(F)c(Nc3ccc(Br)cc3Cl)c(C(=O)NOCCO)cc21		human ESRD on haemodialysis	oral, 50 mg, after dialysis		725 ng/mL
C[C@H](CCC(=O)NCC(=O)O)[C@H]1CC[C@H]2[C@@H]3[C@H](O)C[C@@H]4C[C@H](O)CC[C@]4(C)[C@H]3CC[C@]12C		human, plasma	concentration not given, endogenous control diurnal		1680 ± 207 nM
Cn1nnc2c(C(N)=O)ncn2c1=O		human patients, plasma	oral, 20 mg/m2, day 5, dose level DL2, median, together with: talazoparib 400 µg/m2		570 ng/mL

Repeated from above:
Compound	test	system	conditions	scale	Cmax
Fc1ccc([C@@H]2CCNC[C@H]2COc2ccc3c(c2)OCO3)cc1		human, CYP2D6 normal metabolizers	oral, 20 mg, steady state, geometric mean		23 ng/mL
CC1(COc2ccc3c(c2)ncn3-c2ccc3cccc(N4CCC(N)CC4)c3n2)COC1		human patients, recurrent/progressive HGG or DIPG, serum	oral, 220 mg/m^2, day 1, median		1620 nM
Cc1nc2ccc(F)cc2n1-c1nc(N)c(F)c(Nc2ccc(C(F)(F)F)cc2)n1		human patients, plasma	oral, 200 mg twice weekly, cycles 1 and 2 pooled		1260 ng/mL
COCCOc1cnc2ccn([C@H](C)c3nnc4c(F)cc(-c5cnn(C)c5)cn34)c(=O)c2c1		human patients, dose escalation, plasma	oral, 300 mg once daily, day 1		4010 ng/mL
